Earlier results as cited in several papers.
Numbered parts are unrelated; values within a part may stem from several laboratories. Numbers after ± are the reported error.

Series 1 — organism: Staphylococcus aureus; form: peptide
Sequence | MIC [µM]
GSGCCGQGSCCGRWSGMKNIRVLWCGGCC | > 128
FFFHIIHHIFHLIRRLLHRIRRRRRRHR | > 128
GTVLCCETCFLLSCCKIGCTCTRVV | > 128

Series 2 — Molecule: omiganan
organism | system | conditions | MIC [µM]
Staphylococcus aureus | ATCC 25923 | literature value | 12.5
Acinetobacter baumannii | ATCC 19606 | literature value | 12.5
Escherichia coli | ATCC 25922 | literature value | 12.5
Pseudomonas aeruginosa | ATCC 27853 | literature value | 12.5
Enterobacter sp. | KCTC 2625 |  | < 3.1
Klebsiella pneumoniae | ATCC 700603 | literature value | 25
Bacillus subtilis | KCTC 3068 | literature value | 6.3

Other studies, line by line
B1: CX3CL1, human; sequence looked up; chain QHHGVTKCNITCSKMTSKIPVALLIHYQQNQASCGKRAIILETRQHRLFCADPKEQWVKDAMQHLDRQAAALTRNGGTFEKQIGEVKPRTTPAAGGMDESVVLEPEATGESSSLEPTPSSQEAQRALGTSPELPTGVTGSSGTRLPPTPKAQDGGPVGTELFRVPPVSTAATWQSSAPHQPGPSLWAEAKTSEAPSTQDPSTQASTASSPAPEENAPSEGQRVWGQGQSPRPENSLEREEMGPVPAHTDAFQDWGPGSMAHVSVVPVSSEGTPSREPVASGSWTPKAEEPIHATMDPQRLGVLITPVPDAQAATRRQAVGLLAFLGLLFCLGVAMFTYQSLQGCPRKMAGEMAEGLRYIPRSCGSNSYVLVPV
B2: CCL4; sequence looked up; chain APMGSDPPTACCFSYTARKLPRNFVVDYYETSSLCSQPAVVFQTKRSKQVCADPSESWVQEYVYDLELN
Molecule | tested on | test | system | measurement | result
B1 (CX3CL1, human) | US28 wild type | binding, radioligand competition |  | Kd | 0.5 nM
calcein AM | MDA-MB-231 cells | viscosity probe |  | hydrodynamic radius | 0.65 nm
human CCL11 | CCR3 D19A mutant |  |  | IC50 | 0.00676 µM
VVIA | Aβ42-induced neurotoxicity | inhibitor, LDH release | peptide, differentiated PC-12 | IC50 | 47 ± 14 µM
CCL5 | US28 T11A | binding, radioligand competition |  | Kd | 2 nM
B2 (CCL4) | US28 F14A | binding, radioligand competition |  | Kd | 18.4 nM

Some of these lines once more (other studies, line by line):
Molecule | tested on | test | system | measurement | result
human CCL11 | CCR3 D19A mutant |  |  | IC50 | 0.00676 µM
B1 (CX3CL1, human) | US28 wild type | binding, radioligand competition |  | Kd | 0.5 nM
